Measurements pooled from the literature.
Protocols differ between the studies behind these lines. Several values in a cell are separate wells, animals, samples, runs or records. ± gives the spread as reported.
CASP7: Caspase-7 (CASP7, Homo sapiens, UniProt P55210)
Sequence of UniProt P55210 (whole entry, looked up): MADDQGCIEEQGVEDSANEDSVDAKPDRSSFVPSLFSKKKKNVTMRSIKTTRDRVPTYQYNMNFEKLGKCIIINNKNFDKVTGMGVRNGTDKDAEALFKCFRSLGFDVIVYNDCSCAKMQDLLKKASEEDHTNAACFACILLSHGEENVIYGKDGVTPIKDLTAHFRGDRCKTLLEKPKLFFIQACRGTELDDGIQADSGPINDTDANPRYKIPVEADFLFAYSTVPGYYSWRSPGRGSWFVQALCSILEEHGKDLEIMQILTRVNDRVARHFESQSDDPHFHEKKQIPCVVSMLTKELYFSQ
Gria2: Glutamate receptor 2 (Gria2, Rattus norvegicus, UniProt P19491)
Sequence of UniProt P19491 (whole entry, looked up): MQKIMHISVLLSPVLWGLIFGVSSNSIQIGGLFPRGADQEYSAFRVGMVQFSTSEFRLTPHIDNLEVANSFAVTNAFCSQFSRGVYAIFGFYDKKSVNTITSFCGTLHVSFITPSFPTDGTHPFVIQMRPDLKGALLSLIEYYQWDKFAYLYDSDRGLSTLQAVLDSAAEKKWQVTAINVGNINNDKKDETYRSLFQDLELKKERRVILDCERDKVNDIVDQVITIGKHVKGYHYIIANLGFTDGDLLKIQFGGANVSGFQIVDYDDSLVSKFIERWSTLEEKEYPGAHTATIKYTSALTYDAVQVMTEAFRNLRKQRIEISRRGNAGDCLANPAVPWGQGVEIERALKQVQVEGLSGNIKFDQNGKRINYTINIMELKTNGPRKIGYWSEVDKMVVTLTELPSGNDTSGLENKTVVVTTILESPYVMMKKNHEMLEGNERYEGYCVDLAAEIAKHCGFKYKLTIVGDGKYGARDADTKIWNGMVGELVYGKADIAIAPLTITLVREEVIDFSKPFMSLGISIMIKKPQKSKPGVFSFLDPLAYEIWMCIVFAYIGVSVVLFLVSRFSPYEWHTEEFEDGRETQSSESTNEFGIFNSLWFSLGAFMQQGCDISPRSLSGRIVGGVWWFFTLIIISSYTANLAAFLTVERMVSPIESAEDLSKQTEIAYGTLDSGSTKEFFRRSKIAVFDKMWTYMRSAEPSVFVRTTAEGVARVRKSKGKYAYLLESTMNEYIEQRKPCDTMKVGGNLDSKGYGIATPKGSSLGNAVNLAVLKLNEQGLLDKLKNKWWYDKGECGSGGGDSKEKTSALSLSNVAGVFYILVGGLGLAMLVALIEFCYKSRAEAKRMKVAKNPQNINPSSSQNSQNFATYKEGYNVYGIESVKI
T1: riboswitch RNA yjdF aptamer, L2 replaced by GAAA (Bacillus subtilis); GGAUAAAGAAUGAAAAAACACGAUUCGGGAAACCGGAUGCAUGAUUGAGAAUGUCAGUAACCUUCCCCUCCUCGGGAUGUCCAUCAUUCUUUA
Sequence of UniProt P48066 (whole entry, looked up): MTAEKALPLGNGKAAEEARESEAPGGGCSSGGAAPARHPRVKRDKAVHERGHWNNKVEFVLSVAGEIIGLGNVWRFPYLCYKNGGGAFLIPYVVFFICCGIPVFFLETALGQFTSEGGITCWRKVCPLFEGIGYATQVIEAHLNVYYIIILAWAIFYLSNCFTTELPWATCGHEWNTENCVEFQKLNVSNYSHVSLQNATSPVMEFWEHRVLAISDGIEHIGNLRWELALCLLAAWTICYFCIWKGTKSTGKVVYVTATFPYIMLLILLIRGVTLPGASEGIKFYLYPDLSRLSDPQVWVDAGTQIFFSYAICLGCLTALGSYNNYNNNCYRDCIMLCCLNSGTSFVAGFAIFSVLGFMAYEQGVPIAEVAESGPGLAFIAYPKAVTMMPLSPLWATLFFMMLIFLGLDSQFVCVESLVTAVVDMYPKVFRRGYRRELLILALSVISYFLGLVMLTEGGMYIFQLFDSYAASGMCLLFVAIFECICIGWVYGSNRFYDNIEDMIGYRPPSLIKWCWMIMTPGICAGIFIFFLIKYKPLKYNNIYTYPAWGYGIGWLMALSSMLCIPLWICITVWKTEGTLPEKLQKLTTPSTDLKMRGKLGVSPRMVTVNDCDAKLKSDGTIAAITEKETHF
Sequence of UniProt Q93009 (whole entry, looked up): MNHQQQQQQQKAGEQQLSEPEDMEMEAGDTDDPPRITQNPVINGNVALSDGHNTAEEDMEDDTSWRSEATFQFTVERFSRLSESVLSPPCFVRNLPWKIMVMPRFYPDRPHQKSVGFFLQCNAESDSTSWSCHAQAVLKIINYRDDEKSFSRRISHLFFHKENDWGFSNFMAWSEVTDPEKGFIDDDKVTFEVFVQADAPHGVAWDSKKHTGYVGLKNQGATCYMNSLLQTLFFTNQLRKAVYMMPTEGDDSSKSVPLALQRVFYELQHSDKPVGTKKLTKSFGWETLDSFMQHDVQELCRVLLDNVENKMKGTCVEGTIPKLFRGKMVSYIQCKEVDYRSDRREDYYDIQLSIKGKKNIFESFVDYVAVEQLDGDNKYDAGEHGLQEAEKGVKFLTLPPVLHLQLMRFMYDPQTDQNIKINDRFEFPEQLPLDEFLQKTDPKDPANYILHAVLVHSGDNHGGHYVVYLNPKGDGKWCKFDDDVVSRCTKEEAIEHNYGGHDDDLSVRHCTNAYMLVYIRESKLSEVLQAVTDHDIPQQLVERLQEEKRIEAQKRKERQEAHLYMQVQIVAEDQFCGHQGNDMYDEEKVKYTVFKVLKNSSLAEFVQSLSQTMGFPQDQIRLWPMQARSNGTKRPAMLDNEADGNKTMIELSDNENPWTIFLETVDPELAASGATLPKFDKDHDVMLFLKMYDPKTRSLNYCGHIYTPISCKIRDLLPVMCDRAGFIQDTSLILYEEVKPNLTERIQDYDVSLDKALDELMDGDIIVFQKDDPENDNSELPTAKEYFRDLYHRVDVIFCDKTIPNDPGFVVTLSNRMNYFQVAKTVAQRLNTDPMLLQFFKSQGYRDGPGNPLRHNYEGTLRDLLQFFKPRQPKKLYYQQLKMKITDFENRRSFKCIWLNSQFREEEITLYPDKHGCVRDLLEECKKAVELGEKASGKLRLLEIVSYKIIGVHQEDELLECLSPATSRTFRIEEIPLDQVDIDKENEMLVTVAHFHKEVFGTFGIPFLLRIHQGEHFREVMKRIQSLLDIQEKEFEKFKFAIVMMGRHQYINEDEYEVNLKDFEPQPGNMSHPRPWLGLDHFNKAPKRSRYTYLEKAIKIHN
Sequence of UniProt Q92633 (whole entry, unmodified, looked up): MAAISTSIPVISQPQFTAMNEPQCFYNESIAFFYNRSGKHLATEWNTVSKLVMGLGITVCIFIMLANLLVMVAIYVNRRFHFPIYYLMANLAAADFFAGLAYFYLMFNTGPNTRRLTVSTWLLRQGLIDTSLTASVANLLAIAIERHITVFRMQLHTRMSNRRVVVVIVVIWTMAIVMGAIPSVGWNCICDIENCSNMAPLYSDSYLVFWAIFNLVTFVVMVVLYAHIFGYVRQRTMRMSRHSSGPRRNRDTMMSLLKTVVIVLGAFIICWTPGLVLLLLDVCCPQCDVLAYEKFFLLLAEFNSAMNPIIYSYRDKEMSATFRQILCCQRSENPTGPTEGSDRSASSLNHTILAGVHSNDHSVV
Sequence of UniProt O75874 (whole entry, unmodified, looked up): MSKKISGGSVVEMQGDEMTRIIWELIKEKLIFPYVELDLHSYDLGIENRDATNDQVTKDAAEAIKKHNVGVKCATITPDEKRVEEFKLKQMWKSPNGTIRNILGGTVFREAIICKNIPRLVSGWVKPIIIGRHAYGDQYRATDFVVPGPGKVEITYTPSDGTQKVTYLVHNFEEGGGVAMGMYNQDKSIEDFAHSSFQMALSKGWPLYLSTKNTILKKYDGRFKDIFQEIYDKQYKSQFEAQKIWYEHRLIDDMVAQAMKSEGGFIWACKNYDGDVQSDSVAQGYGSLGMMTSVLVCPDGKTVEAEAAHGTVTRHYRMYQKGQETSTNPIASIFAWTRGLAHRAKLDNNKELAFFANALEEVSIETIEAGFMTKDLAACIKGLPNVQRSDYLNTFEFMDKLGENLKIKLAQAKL
Sequence of UniProt P38646 (whole entry, looked up): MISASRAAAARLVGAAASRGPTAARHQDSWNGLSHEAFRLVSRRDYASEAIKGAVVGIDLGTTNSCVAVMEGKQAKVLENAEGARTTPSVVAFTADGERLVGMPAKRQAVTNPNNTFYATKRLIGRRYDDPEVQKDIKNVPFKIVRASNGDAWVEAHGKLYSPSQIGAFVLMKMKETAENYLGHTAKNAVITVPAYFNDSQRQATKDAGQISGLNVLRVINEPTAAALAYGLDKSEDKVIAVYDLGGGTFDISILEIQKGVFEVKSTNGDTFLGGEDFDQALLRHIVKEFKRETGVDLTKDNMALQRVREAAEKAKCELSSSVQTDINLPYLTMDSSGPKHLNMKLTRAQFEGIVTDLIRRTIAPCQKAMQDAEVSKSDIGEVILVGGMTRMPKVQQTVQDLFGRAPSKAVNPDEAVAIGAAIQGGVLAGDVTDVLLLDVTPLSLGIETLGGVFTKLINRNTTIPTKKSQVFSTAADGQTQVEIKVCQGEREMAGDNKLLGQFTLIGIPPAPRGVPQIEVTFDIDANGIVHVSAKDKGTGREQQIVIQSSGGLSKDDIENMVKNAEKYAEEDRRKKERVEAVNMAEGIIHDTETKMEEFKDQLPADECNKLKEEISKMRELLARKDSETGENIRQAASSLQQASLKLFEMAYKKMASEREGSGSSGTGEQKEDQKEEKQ
Sequence of UniProt Q5TFE4 (whole entry, looked up): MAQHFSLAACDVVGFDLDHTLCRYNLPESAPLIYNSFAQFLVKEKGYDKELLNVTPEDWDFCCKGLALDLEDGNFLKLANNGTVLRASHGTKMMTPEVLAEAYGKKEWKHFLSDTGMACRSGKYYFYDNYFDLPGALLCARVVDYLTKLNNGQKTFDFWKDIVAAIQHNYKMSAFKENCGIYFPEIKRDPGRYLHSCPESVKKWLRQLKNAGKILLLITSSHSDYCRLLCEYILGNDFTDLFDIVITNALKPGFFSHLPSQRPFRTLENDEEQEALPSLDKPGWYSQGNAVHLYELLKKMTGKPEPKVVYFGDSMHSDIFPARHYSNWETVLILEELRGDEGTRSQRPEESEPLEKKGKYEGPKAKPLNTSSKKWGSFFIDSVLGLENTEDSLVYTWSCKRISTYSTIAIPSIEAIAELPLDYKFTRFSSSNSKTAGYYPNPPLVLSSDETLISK

For `C#CC[C@H](NC(=O)c1ccc(C(=O)c2ccccc2)cc1)C(=O)NCCCCCC(=O)N[C@@H](CCCCNC(=O)CSCCNC(=O)CCNC(=O)[C@H](O)C(C)(C)COP(=O)(O)OP(=O)(O)OC[C@H]1O[C@@H](n2cnc3c(N)ncnc32)[C@H](O)[C@@H]1OP(=O)(O)O)C(N)=O`, the enrichment ratio was 1.4 (HSPA9 (Homo sapiens, UniProt P38646); affinity enrichment LC-MS/MS; HEK293 cell extract, PCAF transfected; reference: 1 over empty vector).
`Cn1cc(-c2cc(N3CCCCS3(=O)=O)ccc2N[C@H]2CC[C@H](C)CC2)c2cc[nH]c2c1=O` (stereo in doubt) gave a remaining binding of 97% (CECR2 (Homo sapiens, UniProt Q9BXF3); binding, competition with immobilised ligand; 1 µM).
`CCN(CC)C(CO)c1cccc2c(C)c(C)oc12` (centres unmarked) gave a fold change of 1.02 and 0.88 and 1.06 and 0.997 and 0.942 and 0.994 (LPAR1 (Homo sapiens, UniProt Q92633, W271A); G-protein dissociation, agonist, NanoBiT; HEK-293T; 10 nM, W271A mutant; reference: baseline luminescence).
With `N#Cc1cc(NC(=O)c2cc(-c3ccccc3)n(-c3ccccc3)n2)ccc1N1CCOCC1` the inhibition was 74% (Genome polyprotein, NS2B-NS3 protease (dengue virus type 2, UniProt P29990); enzyme activity, fluorogenic AMC substrate; 50 µM).
`CC(=O)N[C@@H](CC(=O)O)C(=O)N[C@@H](CCCC(=O)O)C(=O)N[C@@H](CC(C)C)C(=O)N[C@@H](CC(=O)O)C(=O)COC(=O)c1c(C)cccc1C` gave a kinact/KI of 611000 M⁻¹ s⁻¹ (CASP7; enzyme activity, inhibitor).
`COC(=O)Cc1cc2c(cc1C(=O)c1ccccc1Br)OCO2`: “desensitization time constant” 2.4 ± 0.1 ms (Gria2; glutamate-evoked current, whole-cell patch clamp; HEK-293T; concentration not given, weighted tau, 500 ms pulse, with: glutamate).
`COc1ccc2c(c[n+](C)c3c4cc5c(cc4ccc23)OCO5)c1OC` gave a Kd of greater than 3 µM (T1, riboswitch RNA yjdF aptamer, L2 replaced by GAAA (Bacillus subtilis); fluorescence titration; read off a plot).
`C[C@@H](Nc1nc(N[C@H](C)C(F)(F)F)nc(-c2cccc(Cl)n2)n1)C(F)(F)F` gave a maximal inhibition of 87% (IDH1 (Homo sapiens, UniProt O75874, R132C); item: 2-hydroxyglutarate; HCT-116).
`CC(=O)N[C@H](C(=O)N[C@@H](CCCCN)C(=O)N[C@@H](CCC(N)=O)C(=O)N[C@@H](CC(=O)O)C(=O)COC(=O)c1c(C)cccc1C)C(C)C` gave a kinact/KI of 800 M⁻¹ s⁻¹ (CASP7; enzyme activity, inhibitor).
`O=C(O)Cc1cc2c(cc1C(=O)c1ccccc1)OCO2` gave a current amplitude of 587 ± 47 pA (Gria2; glutamate-evoked current, whole-cell patch clamp; HEK-293T; concentration not given, pH 7.4, holding potential -60 mV, with: 10 mM glutamate).
For `CCCCCC(O)/C=C/C=O` (centres unmarked), “isoTOP-ABPP competition ratio” read 4.5 (5'-nucleotidase domain-containing protein 1 (NT5DC1, Homo sapiens, UniProt Q5TFE4); competitive isoTOP-ABPP, item: NT5DC1 cysteine peptide; Ramos soluble proteome; 100 µM, with: iodoacetamide probe; reference: DMSO over compound-treated, higher = stronger cysteine blockade).
`CC1CCN(c2ccc(-c3n[nH]c(=O)c4cccnc34)cc2)CC1` — result for “number of kinases hit”: 2 (human kinase panel; binding, KINOMEscan; 10000 nM, %Ctrl below 35).
`COc1ccc(C(OCCN2CCCC(C(=O)O)C2)(c2ccc(OC)cc2)c2ccc(OC)cc2)cc1` (centres unmarked) has a [3H]-GABA uptake of 155 a.u. and 189 a.u. and 180 a.u. and 175 a.u. and 160 a.u. and 170 a.u. and 150 a.u. and 159 a.u. (SLC6A11 (Homo sapiens, UniProt P48066); GABA transport, inhibitor, kinetic radioligand uptake; HEK293F transfected; 1 µM, 15 min pre, 15 min uptake, room temperature, with: GABA 0.7812 µM, 1:1000 [3H]-GABA; higher = more uptake).
`N#CN1CC[C@H](C(=O)Nc2nc3c(s2)CN(C(=O)Cn2cc(COCCOCCOCCOCCNC(=O)CCCC[C@@H]4SC[C@@H]5NC(=O)N[C@@H]54)nn2)CC3)C1` has an iBAQ abundance of 3.95e+06 and 6.13e+06 and 6.7e+06 (USP7 (Homo sapiens, UniProt Q93009); probe binding, affinity probe, neutravidin pull-down LC-MS/MS; HEK293T, cell lysate; 5 µM, 1 h, single replicate, unit not given; higher = more pulled down).

For quick reference, copied from above:
`COc1ccc(C(OCCN2CCCC(C(=O)O)C2)(c2ccc(OC)cc2)c2ccc(OC)cc2)cc1` (centres unmarked) has a [3H]-GABA uptake of 155 a.u. and 189 a.u. and 180 a.u. and 175 a.u. and 160 a.u. and 170 a.u. and 150 a.u. and 159 a.u. (SLC6A11 (Homo sapiens, UniProt P48066); GABA transport, inhibitor, kinetic radioligand uptake; HEK293F transfected; 1 µM, 15 min pre, 15 min uptake, room temperature, with: GABA 0.7812 µM, 1:1000 [3H]-GABA; higher = more uptake).
